Experimental data from different studies.
Compare with care: the assays were run in different laboratories. ± gives the spread as reported.
Chain of UniProt Q13315 (whole entry, looked up): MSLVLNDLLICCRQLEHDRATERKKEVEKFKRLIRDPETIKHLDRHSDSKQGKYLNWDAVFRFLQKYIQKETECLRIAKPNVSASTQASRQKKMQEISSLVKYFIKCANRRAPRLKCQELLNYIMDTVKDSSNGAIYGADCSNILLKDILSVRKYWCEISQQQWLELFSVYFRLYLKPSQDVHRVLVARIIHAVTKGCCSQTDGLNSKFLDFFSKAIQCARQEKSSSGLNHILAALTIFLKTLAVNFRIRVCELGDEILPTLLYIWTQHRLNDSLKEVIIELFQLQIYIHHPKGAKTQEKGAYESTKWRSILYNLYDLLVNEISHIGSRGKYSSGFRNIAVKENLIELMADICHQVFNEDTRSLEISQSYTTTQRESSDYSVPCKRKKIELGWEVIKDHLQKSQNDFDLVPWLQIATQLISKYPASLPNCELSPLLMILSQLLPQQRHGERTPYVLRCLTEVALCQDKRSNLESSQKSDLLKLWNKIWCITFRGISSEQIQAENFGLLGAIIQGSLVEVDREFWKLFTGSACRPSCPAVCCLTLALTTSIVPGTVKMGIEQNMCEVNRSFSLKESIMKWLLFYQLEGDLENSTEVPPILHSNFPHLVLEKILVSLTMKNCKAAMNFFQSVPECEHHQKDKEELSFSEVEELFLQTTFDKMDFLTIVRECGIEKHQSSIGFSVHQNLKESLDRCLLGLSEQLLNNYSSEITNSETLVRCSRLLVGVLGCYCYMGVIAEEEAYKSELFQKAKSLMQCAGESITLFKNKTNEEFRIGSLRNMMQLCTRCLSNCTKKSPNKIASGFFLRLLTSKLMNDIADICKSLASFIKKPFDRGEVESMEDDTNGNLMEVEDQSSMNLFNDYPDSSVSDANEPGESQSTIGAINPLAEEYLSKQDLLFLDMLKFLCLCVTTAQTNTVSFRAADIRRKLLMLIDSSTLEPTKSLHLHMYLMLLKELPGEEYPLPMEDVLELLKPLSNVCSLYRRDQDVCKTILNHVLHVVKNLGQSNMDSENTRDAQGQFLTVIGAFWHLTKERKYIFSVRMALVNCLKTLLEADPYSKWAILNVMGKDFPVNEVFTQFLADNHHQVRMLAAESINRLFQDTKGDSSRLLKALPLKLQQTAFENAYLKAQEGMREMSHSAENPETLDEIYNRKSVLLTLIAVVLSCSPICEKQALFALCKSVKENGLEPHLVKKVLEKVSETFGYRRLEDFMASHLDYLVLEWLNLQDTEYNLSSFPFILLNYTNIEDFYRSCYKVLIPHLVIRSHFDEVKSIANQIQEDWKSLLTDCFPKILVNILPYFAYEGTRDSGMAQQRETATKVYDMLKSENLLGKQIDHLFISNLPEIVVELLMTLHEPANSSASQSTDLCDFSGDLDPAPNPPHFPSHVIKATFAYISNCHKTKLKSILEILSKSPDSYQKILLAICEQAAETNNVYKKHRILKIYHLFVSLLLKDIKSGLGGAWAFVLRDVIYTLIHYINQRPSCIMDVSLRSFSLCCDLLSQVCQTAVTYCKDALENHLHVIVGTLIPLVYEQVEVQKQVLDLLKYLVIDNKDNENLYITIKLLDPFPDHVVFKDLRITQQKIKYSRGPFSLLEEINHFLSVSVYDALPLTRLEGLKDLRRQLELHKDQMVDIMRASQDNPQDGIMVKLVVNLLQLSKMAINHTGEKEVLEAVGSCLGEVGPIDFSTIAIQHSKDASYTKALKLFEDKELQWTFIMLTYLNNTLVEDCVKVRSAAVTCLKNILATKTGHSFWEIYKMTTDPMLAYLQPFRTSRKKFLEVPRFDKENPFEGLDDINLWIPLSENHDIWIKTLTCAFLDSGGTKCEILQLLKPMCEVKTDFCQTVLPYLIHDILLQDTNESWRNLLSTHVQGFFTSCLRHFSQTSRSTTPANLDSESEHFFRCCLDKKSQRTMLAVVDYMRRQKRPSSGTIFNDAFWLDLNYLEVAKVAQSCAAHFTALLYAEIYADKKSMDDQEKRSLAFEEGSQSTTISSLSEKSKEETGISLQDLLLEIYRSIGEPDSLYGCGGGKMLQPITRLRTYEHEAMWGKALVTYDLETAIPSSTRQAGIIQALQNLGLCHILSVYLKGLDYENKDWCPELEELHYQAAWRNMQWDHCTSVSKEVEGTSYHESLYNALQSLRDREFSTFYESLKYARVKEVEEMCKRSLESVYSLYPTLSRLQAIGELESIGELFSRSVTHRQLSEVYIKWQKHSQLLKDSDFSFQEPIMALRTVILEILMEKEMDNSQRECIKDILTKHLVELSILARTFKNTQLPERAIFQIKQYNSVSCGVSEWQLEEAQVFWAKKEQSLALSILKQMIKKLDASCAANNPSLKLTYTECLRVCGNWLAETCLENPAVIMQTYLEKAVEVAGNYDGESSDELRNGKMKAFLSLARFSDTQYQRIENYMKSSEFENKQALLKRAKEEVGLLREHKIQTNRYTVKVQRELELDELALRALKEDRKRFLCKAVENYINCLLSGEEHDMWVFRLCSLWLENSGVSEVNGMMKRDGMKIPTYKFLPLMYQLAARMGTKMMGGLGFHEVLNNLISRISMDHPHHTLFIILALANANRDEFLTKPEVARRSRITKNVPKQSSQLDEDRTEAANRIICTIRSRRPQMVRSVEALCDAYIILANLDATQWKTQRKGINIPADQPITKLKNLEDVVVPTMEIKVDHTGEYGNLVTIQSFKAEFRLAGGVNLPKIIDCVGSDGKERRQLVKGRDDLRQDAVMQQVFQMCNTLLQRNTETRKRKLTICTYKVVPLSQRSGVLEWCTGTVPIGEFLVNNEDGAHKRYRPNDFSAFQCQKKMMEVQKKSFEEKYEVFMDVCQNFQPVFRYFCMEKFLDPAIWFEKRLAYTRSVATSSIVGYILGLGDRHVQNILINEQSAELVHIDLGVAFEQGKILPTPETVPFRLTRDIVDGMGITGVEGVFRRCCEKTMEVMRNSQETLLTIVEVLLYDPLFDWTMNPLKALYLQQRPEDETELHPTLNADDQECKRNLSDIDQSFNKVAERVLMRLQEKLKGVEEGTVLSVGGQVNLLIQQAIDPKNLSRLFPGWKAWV
Chain of UniProt P46734 (whole entry, looked up): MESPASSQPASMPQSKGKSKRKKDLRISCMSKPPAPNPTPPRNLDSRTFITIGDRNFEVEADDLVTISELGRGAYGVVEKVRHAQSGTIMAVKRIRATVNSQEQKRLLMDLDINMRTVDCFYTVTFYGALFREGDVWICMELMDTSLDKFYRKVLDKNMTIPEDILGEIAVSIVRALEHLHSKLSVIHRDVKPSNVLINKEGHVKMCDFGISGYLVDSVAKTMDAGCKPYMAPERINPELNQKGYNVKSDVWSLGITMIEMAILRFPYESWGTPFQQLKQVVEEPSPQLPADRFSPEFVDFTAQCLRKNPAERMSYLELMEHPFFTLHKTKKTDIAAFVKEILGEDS

SMILES	target or system	assay	system	setting	endpoint	result
CSCC[C@@H]1NC(=O)[C@@H]2CCCN2C(=O)[C@H](C(C)C)NC(=O)[C@@H](NC(=S)Nc2ccc(CC3CN(CC(=O)O)CCN(CC(=O)O)CCN3CC(=O)O)cc2)CSSC[C@@H](C(=O)O)NC(=O)[C@H](C)NC(=O)[C@H](CCCNC(=N)N)NC(=O)[C@H](Cc2ccc(O)cc2)NC(=O)[C@H]([C@@H](C)O)NC1=O (stereo partly shown) [gallium-68 labelled]			serum	2 h	remaining compound	> 99%
CN(C)[C@H]1C[C@@]23CC[C@@]4(O2)C(=CC[C@]2(C)[C@@H](c5ccc6ccncc6c5)CC[C@H]24)C=C3[C@@H](O)[C@@H]1O	ATM (Homo sapiens, UniProt Q13315)	ATP probe labelling, inhibitor, KiNativ profiling		0.1 µM	inhibition	-30.3%
CCCC[C@H](NC(=O)CN1CCC(NC(=O)CN2CCN(CC(N)=O)CCN(CC(N)=O)CCN(CC(N)=O)CC2)CC1)C(=O)N[C@H]1CC(=O)NCCCC[C@@H](C(N)=O)NC(=O)[C@H](Cc2c[nH]c3ccccc23)NC(=O)[C@H](CCCNC(=N)N)NC(=O)[C@@H](Cc2ccccc2)NC(=O)[C@H](Cc2c[nH]cn2)NC1=O		iTLC	human serum	72 h, 37 °C, lead-203-labelled	intact complex	100%
N=C(N)NCCC[C@@H]1NC(=O)[C@H](CCCCNC(=O)CCC(NC(=S)Nc2ccc(CC3CN(CC(=O)O)CCN(CC(=O)O)CCN(CC(=O)O)CCN3CC(=O)O)cc2)C(=O)NCCCC[C@@H]2NC(=O)[C@@H](Cc3ccc(O)cc3)NC(=O)[C@H](CC(=O)O)NC(=O)CNC(=O)[C@H](CCCNC(=N)N)NC2=O)NC(=O)[C@@H](Cc2ccc(O)cc2)NC(=O)[C@H](CC(=O)O)NC(=O)CNC1=O (stereo partly shown) [scandium-44 labelled]		ex vivo γ-counting	female athymic nude mice, U-87 MG xenograft, heart	intravenous, 4 h, added: cRGD 50 mg/kg blocking	tissue uptake	0.024 ± 0.006 %ID/g
CCCCCCCCCCCCCCC(=O)N[C@@H](CCCCNC(=O)CN1CCN(CC(=O)O)CCN(CC(=O)O)CCN(CC(=O)O)CC1)C(=O)N[C@@H](CCC(=O)NCCCC[C@@H]1NC(=O)[C@@H](Cc2ccccc2)NC(=O)[C@H](CC(=O)O)NC(=O)CNC(=O)[C@H](CCCNC(=N)N)NC1=O)C(=O)NCCCC[C@@H]1NC(=O)[C@@H](Cc2ccccc2)NC(=O)[C@H](CC(=O)O)NC(=O)CNC(=O)[C@H](CCCNC(=N)N)NC1=O [indium-111 labelled]			female BALB/c nude mice, U-87 MG xenograft, blood	intravenous, dose not given, 4 h	blood radioactivity	1.29 ± 0.12 %ID/g
CCCC[C@H](NC(=O)CN1CCC(NC(=S)Nc2ccc(C[C@H]3CN(CC(N)=O)CCN(CC(N)=O)CCN(CC(N)=O)CCN3CC(N)=O)cc2)CC1)C(=O)N[C@H]1CC(=O)NCCCC[C@@H](C(N)=O)NC(=O)[C@H](Cc2c[nH]c3ccccc23)NC(=O)[C@H](CCCNC(=N)N)NC(=O)[C@@H](Cc2ccccc2)NC(=O)[C@H](Cc2c[nH]cn2)NC1=O		iTLC	human serum	72 h, 37 °C, lead-203-labelled	intact complex	100%
CCCCCCCCCCCCCCCCCCCCCCCCCC(=O)O[C@H](CCCCCCCCCCCCCC)[C@@H](O)[C@H](CO[C@H]1O[C@H](CO)[C@H](O)[C@H](O)[C@H]1O)NC(=O)OCc1ccc(NC(=O)[C@H](CCCNC(N)=O)NC(=O)[C@@H](NC(=O)CCCCCn2cc(CCC(=O)N[C@@H](Cc3ccccc3)C(=O)N[C@@H](Cc3ccccc3)C(=O)N[C@@H](CCCNC(=N)N)C(=O)N[C@@H](CCCCN)C(=O)N[C@@H](CO)C(=O)N[C@H](C(=O)N[C@H](C(=O)N[C@@H](CC(N)=O)C(=O)N[C@@H](Cc3ccccc3)C(=O)N[C@@H](CCC(=O)O)C(=O)N[C@@H](CCCCN)C(=O)N[C@@H](CC(C)C)C(=O)O)[C@@H](C)CC)[C@@H](C)CC)nn2)C(C)C)cc1		HPLC-ESI-MS/MS	aqueous ammonium formate 50 mM	10 µg/mL, eight days, pH 3.0, 20 °C	remaining α-GalCer level	< 0.05%
CC(=O)N[C@@H](CC(C)C)C(=O)N[C@H](C(=O)N[C@@H](Cc1ccccc1)C(=O)N[C@]1(C)CCCCCC/C=C/CCC[C@@](C)(C(=O)N[C@@H](C)C(=O)N[C@@H](C)C(=O)N[C@@H](C)C(=O)N[C@@H](C)C(=O)N[C@@H](C)C(=O)N[C@H](C)C(N)=O)NC(=O)[C@H](CC(C)C)NC(=O)[C@H](CCCCNC(=O)CCNC(=O)C[C@@H]2N=C(c3ccc(Cl)cc3)c3c(sc(C)c3C)-n3c(C)nnc32)NC(=O)[C@H](C)NC(=O)[C@H](Cc2c[nH]c3ccccc23)NC(=O)[C@H](Cc2ccc(O)cc2)NC(=O)[C@H](C)NC1=O)[C@@H](C)O			male C57BL/6 mouse, plasma	intravenous, 3 mg/kg	Cmax	2100 nM
O=C1NC2(CC2)COc2ncc(F)cc2[C@H]2COCCN2c2ccn3ncc1c3n2			Sprague-Dawley rat, female, serum	oral, 2.5 mg/kg/day, 4 weeks daily, end of recovery period	potassium	3.95 ± 0.24 mmol/L
CC(C)C[C@H](NC(=O)[C@@H]1CCCN1C(=O)[C@H](CCCCN)NC(=O)[C@@H](N)CO)C(=O)N1CCC[C@H]1C(=O)N[C@@H](CCC(=O)O)C(=O)N[C@H](C(=O)N[C@H](C(=O)N[C@@H](CC(=O)O)C(=O)N[C@@H](CCC(=O)O)C(=O)N[C@@H](Cc1ccc(O)cc1)C(=O)NCC(=O)NCCOCCOCCOCCOCCOCCOCCOCCOCCOCCOCCOCCOCCC(=O)N[C@@H](CCCCNC(=O)CC[C@H](C(=O)O)N1CCN(CC(=O)O)CCN(CC(=O)O)CC1)C(=O)N1CCN(CCCN(C)c2ccc3nccc(C(=O)NCC(=O)N4CC(F)(F)C[C@H]4C#N)c3c2)CC1)[C@@H](C)O)C(C)C [copper-64 labelled]		PET	NMRI nude mouse, HT-1080 hFAP xenograft, tumour	intravenous, maximum tumour uptake	SUVmean	1.6 SUV
CC[C@H](C)[C@@H]([C@@H](CC(=O)N1CCC[C@H]1[C@H](OC)[C@@H](C)C(=O)N[C@H](C)[C@@H](O)c1ccccc1)OC)N(C)C(=O)[C@@H](NC(=O)[C@H](C(C)C)N(C)C(=O)OCc1ccc(NC(=O)[C@H](CCCNC(N)=O)NC(=O)[C@@H](NC(=O)CCCCCN2C(=O)CC(SC[C@H](NC(=O)[C@H](CC(=O)O)NC(=O)[C@H](Cc3ccc(O)cc3)NC(=O)[C@H](Cc3c[nH]c4ccccc34)NC(=O)[C@@H](N)CCCNC(=N)N)C(=O)O)C2=O)C(C)C)cc1)C(C)C (stereo partly shown)			C57BL/6 mouse, healthy, spleen	intraperitoneal, 2.5 mg/kg, 0.167 h	concentration	not detected
CC(C)C[C@H](NC(=O)[C@@H](N)Cc1ccccc1)C(=O)N[C@@H](C)C(=O)N[C@H]1CSCc2cccc(n2)CSC[C@@H](C(=O)N[C@H](C(=O)NCC(=O)N[C@@H](CO)C(=O)N[C@@H](Cc2c[nH]c3ccccc23)C(=O)N[C@@H](CCCCNC(=O)CN2CCN(CC(=O)O)CCN(CC(=O)O)CCN(CC(=O)O)CC2)C(N)=O)[C@@H](C)O)NC(=O)[C@H](Cc2c[nH]cn2)NC(=O)[C@H]([C@@H](C)O)NC(=O)[C@H](CCC(=O)O)NC(=O)[C@@H]2CCCN2C1=O [gallium-68 labelled]		radio-HPLC	fetal bovine serum	2 h, 37 °C	remaining intact compound	> 99%
CC(C)C[C@H](NC(=O)[C@@H]1CCCN1C(=O)[C@H](CCCCN)NC(=O)[C@@H](N)CO)C(=O)N1CCC[C@H]1C(=O)N[C@@H](CCC(=O)O)C(=O)N[C@H](C(=O)N[C@H](C(=O)N[C@@H](CC(=O)O)C(=O)N[C@@H](CCC(=O)O)C(=O)N[C@@H](Cc1ccc(O)cc1)C(=O)NCC(=O)NCCOCCOCCOCCOCCC(=O)N[C@@H](CCCCNC(=O)CC[C@H](C(=O)O)N1CCN(CC(=O)O)CCN(CC(=O)O)CC1)C(=O)N1CCN(CCCN(C)c2ccc3nccc(C(=O)NCC(=O)N4CC(F)(F)C[C@H]4C#N)c3c2)CC1)[C@@H](C)O)C(C)C [copper-64 labelled]		PET	NMRI nude mouse, HT-1080 hFAP xenograft, tumour	intravenous, maximum tumour uptake	SUVmean	3.4 SUV
CC(C)[C@H]1NC(=O)C[C@H]2/C=C/CCSSC[C@@H](NC1=O)C(=O)N[C@H](Cc1cccc3ccccc13)C(=O)NCC(=O)O2	MAP2K3 (Homo sapiens, UniProt P46734)	enzyme activity, inhibitor		10 µM	inhibition	1.2%
CC[C@H](C)[C@H](NC(=O)[C@H](CO)NC(=O)[C@H](Cc1ccc(O)cc1)NC(=O)[C@H](Cc1ccc(O)cc1)NC(=O)[C@H](CC(N)=O)NC(=O)CNC(=O)[C@H](CO)NC(=O)[C@H](Cc1ccc(O)cc1)NC(=O)[C@H](CO)NC(=O)[C@H](CO)NC(=O)[C@H](CC(N)=O)NC(=O)COCCOCCNC(=O)CN1CCN(CC(=O)O)CCN(CC(=O)O)CCN(CC(=O)O)CC1)C(=O)N[C@@H](CC(C)C)C(N)=O [copper-64 labelled]		dynamic PET	KPC mouse Ptf1a-CreER tdTomato, metastases	intravenous, dose not given, 2.5 min, 84 d after tamoxifen	tissue uptake	14.5 %ID/mL
CC(C)(C)C(=O)OCOP(=O)(OCOC(=O)C(C)(C)C)C1CCCN(O)C1=O (stereo not shown)	SF-295				TGI	> 100 µM

A few entries again:
SMILES	target or system	assay	system	setting	endpoint	result
CC(=O)N[C@@H](CC(C)C)C(=O)N[C@H](C(=O)N[C@@H](Cc1ccccc1)C(=O)N[C@]1(C)CCCCCC/C=C/CCC[C@@](C)(C(=O)N[C@@H](C)C(=O)N[C@@H](C)C(=O)N[C@@H](C)C(=O)N[C@@H](C)C(=O)N[C@@H](C)C(=O)N[C@H](C)C(N)=O)NC(=O)[C@H](CC(C)C)NC(=O)[C@H](CCCCNC(=O)CCNC(=O)C[C@@H]2N=C(c3ccc(Cl)cc3)c3c(sc(C)c3C)-n3c(C)nnc32)NC(=O)[C@H](C)NC(=O)[C@H](Cc2c[nH]c3ccccc23)NC(=O)[C@H](Cc2ccc(O)cc2)NC(=O)[C@H](C)NC1=O)[C@@H](C)O			male C57BL/6 mouse, plasma	intravenous, 3 mg/kg	Cmax	2100 nM
